# Results gathered from unrelated publications.
# Each line is one published result; not all experiments were run side by side.
# Sample: plasma
SMILES,species,route,dose,setting,clearance
O=C(NCCCCc1ccccc1)n1c(=O)oc2cc(-c3ccc(F)cc3)ccc21,CD-1 mouse,intraperitoneal,10 mg/kg,,17.6 mL/min/kg
C[C@@H](Nc1nc2c(cnn2C(C)(C)C)c(=O)n1Cc1cccc(F)c1)c1ccc(Cl)cc1,C57BL/6 mouse,intravenous,2.5 mg/kg,,27.9 mL/min/kg
CCOC(=O)c1nc2cc(Cl)c(Cl)cc2nc1N1CCN(C(=O)Nc2ccc(N3CCNCC3)cc2)CC1,male mouse,intravenous,3 mg/kg,,67 mL/min/kg
COC1C(c2ccc(Cl)c(Cc3ccc(OC4CCOC4)cc3)c2)OC(CO)C(O)C1O (stereo not shown),CD-1 mouse,intravenous,5 mg/kg,,5.95 mL/min/kg
CCC(=O)NC1CC=C(c2cc3c(Nc4cc5ncsc5cc4F)ncnc3s2)CC1 (racemic),mouse,intravenous,10 mg/kg,,0.46 mL/min/kg
CC(C)(C)c1cnc(CSc2cnc(NC(=O)C3CCN(C(=O)CCCCCCCN4Cc5cc6c(cc5C4)C(=O)N(C4CCC(=O)NC4=O)C6=O)CC3)s2)o1 (stereo not shown),mouse,intravenous,2 mg/kg,,312 mL/min/kg
CCC1(CC)CC(=O)N(C2c3cc(C(=O)NC4c5ccccc5CC4O)ccc3OC2(C)COC)C(=N)N1 (stereo not shown),male C57BL/6 mouse,intravenous,2 mg/kg,,39.8 mL/min/kg
Cc1cc(C(=O)N[C@@H](CC(=O)NC(C)(C)C)C(=O)NCCNC(=O)c2cccc(-n3cccn3)c2)no1,mouse,intravenous,0.1 mg/kg,,136 mL/min/kg
COc1cnc2cccc(N3CCc4c(cc(Cn5ccnc5)cc4-c4cn(C)nc4C(F)(F)F)C3=O)c2c1,male CD-1 mouse,intravenous,3 mg/kg,,25 mL/min/kg
O=C1CCC(N2Cc3cc(C(=O)O)c(F)cc3C2=O)C(=O)N1 (stereo not shown),male CD-1 mouse,intravenous,1 mg/kg,,36.2 mL/min/kg
Cc1cc(C(=O)N[C@@H](CC(=O)NC(C)(C)C)C(=O)NCCNC(=O)c2cccc(-c3cc[nH]n3)c2)no1,mouse,intravenous,0.1 mg/kg,,133 mL/min/kg
Cc1cc(NCC(=O)C(C)(C)C)c2nc(N3CCOC[C@H]3C)cc(=O)n2c1,C57BL/6 mouse,intraperitoneal,10 mg/kg,single dose,72 mL/min/kg
C/C(N)=N/C(=N\S(=O)(=O)c1ccc(C(F)(F)F)cc1)N1C[C@H](c2ccccc2)C(c2ccc(Cl)cc2)=N1,male C57BL/6 mouse,intravenous,5 mg/kg,,12 mL/min/kg
N#CCCC1CCN(C(=S)c2ccc(-c3cc(Cl)ccc3Cl)o2)CC1,male BALB/c mouse,intravenous,5 mg/kg,,66.6 mL/min/kg
CC(=O)N1CCC=C(c2cc3c(Nc4cc5ncsc5cc4F)ncnc3s2)C1,mouse,intravenous,10 mg/kg,,0.15 mL/min/kg
FC(F)(F)Oc1ccc2[nH]c(-c3ccc(OCCN4CCOCC4)cn3)nc2c1,mouse,intraperitoneal,100 mg/kg,,0.75 mL/min

# Repeated from above:
SMILES,species,route,dose,setting,clearance
CC(C)(C)c1cnc(CSc2cnc(NC(=O)C3CCN(C(=O)CCCCCCCN4Cc5cc6c(cc5C4)C(=O)N(C4CCC(=O)NC4=O)C6=O)CC3)s2)o1 (stereo not shown),mouse,intravenous,2 mg/kg,,312 mL/min/kg
